Measured values gathered from unrelated publications.
Protocols differ between the studies behind these lines. ± gives the spread as reported.
B1: human DDX5; sequence looked up; chain MSGYSSDRDRGRDRGFGAPRFGGSRAGPLSGKKFGNPGEKLVKKKWNLDELPKFEKNFYQEHPDLARRTAQEVETYRRSKEITVRGHNCPKPVLNFYEANFPANVMDVIARQNFTEPTAIQAQGWPVALSGLDMVGVAQTGSGKTLSYLLPAIVHINHQPFLERGDGPICLVLAPTRELAQQVQQVAAEYCRACRLKSTCIYGGAPKGPQIRDLERGVEICIATPGRLIDFLECGKTNLRRTTYLVLDEADRMLDMGFEPQIRKIVDQIRPDRQTLMWSATWPKEVRQLAEDFLKDYIHINIGALELSANHNILQIVDVCHDVEKDEKLIRLMEEIMSEKENKTIVFVETKRRCDELTRKMRRDGWPAMGIHGDKSQQERDWVLNEFKHGKAPILIATDVASRGLDVEDVKFVINYDYPNSSEDYIHRIGRTARSTKTGTAYTFFTPNNIKQVSDLISVLREANQAINPKLLQLVEDRGSGRSRGRGGMKDDRRDRYSAGKRGGFNTFRDRENYDRGYSSLLKRDFGAKTQNGVYSAANYTNGSFGSNFVSAGIQTSFRTGNPTGTYQNGYDSTQQYGSNVPNMHNGMNQQAYAYPATAAAPMIGYPMPTGYSQ
B2: human ECM1; sequence looked up; chain ASEGGFTATGQRQLRPEHFQEVGYAAPPSPPLSRSLPMDHPDSSQHGPPFEGQSQVQPPPSQEATPLQQEKLLPAQLPAEKEVGPPLPQEAVPLQKELPSLQHPNEQKEGTPAPFGDQSHPEPESWNAAQHCQQDRSQGGWGHRLDGFPPGRPSPDNLNQICLPNRQHVVYGPWNLPQSSYSHLTRQGETLNFLEIGYSRCCHCRSHTNRLECAKLVWEEAMSRFCEAEFSVKTRPHWCCTRQGEARFSCFQEEAPQPHYQLRACPSHQPDISSGLELPFPPGVPTLDNIKNICHLRRFRSVPRNLPATDPLQRELLALIQLEREFQRCCRQGNNHTCTWKAWEDTLDKYCDREYAVKTHHHLCCRHPPSPTRDECFARRAPYPNYDRDILTIDIGRVTPNLMGHLCGNQRVLTKHKHIPGLIHNMTARCCDLPFPEQACCAEEEKLTFINDLCGPRRNIWRDPALCCYLSPGDEQVNCFNINYLRNVALVSGDTENAKGQGEQGSTGGTNISSTSEPKEE

Substance | tested on | test | test system | conditions | how to read | measurement | value
adrenomedullin |  | RP-HPLC | HALO Peptide ES-C18 column | 25 µM, acetic acid/methanol, 10 min gradient |  | retention time | 7.59 min
insulin |  | LC-MS/MS | spiked human serum | one freeze-thaw cycle |  | concentration | 9.73 ng/mL
MLHGVAWQ | HUVEC | ICP-OES, item: rhenium | peptide | concentration not given, 24 h, 37 °C |  | cellular uptake | 0.049 ppm
Neuropeptide Y |  | RP-HPLC | HALO Phenyl-hexyl column | 25 µM, formic acid/acetonitrile, 10 min gradient |  | retention time | 4.25 min
insulin icodec |  |  | Chinese type 2 diabetes patients, serum | subcutaneous, once-weekly geometric mean |  | dose-normalized Cmax at steady state | 91.6 (nmol/L)/(U/kg)
insulin degludec |  |  | human | subcutaneous, 0.4 IU/kg, 1 FC level, fat content group, single dose, reference formulation |  | Cmax | 20.7 ± 4.3 ng/mL
B1 (human DDX5) | PP6C (human) | co-immunoprecipitation, IP-MS | CYB5R4 knockout cells | concentration not given | relative to: CYB5R4 knockout over parental | log2 fold change | -1.34
pegcetacoplan |  | item: nervous system disorders | patients with PNH | dose not given, phase Ib trial |  | number of TEAEs | 17
B2 (human ECM1) | PP6C (human) | co-immunoprecipitation, IP-MS | CYB5R4 knockout cells | concentration not given | relative to: CYB5R4 knockout over parental | log2 fold change | -0.21
durvalumab |  |  | human, plasma | intravenous, 1500 mg, cycle 4 day 1, added: adavosertib 300 mg once daily |  | Cmax | 596000 ng/mL
insulin icodec |  |  | human moderate hepatic impairment, serum | subcutaneous, 1.5 U/kg single dose | relative to: normal hepatic function | AUC(0-inf) increase | 15%

For quick reference, copied from above:
Substance | tested on | test | test system | conditions | how to read | measurement | value
insulin |  | LC-MS/MS | spiked human serum | one freeze-thaw cycle |  | concentration | 9.73 ng/mL
